Measured values gathered from unrelated publications.
± marks the error that the study gave.

Under “AUC(2-58 h) fold change”, `CCC[C@@H]1O[C@@H]2C[C@H]3[C@@H]4C[C@H](F)C5=CC(=O)CC[C@]5(C)[C@@]4(F)[C@@H](O)C[C@]3(C)[C@]2(C(=O)CO)O1` is recorded as 1.2 fold (measured: human FGF21 protein; CD-1 mouse, plasma; subcutaneous, 0.3 mg/kg mRNA, MC3 LNP with hFGF21 mRNA, steroid/mRNA 2:3; reference: LNP without steroid).
For `CC(=O)N[C@@H](CC(N)=O)C(=O)NCC(=O)N[C@@H](CCCNC(=N)N)C(=O)N[C@@H](C)C(N)=O`, “rate constant succinimide to α-Asp” read 0.66 h⁻¹ (1H NMR; sodium phosphate buffer 50 mM; pH 7.4, 46 °C).
For `CCNS(=O)(=O)c1ccc(COc2ccc3nc4ccc(=O)cc-4oc3c2)cc1`, lung colonisation read “decreased” (4T1 GFP/luc, BALB/cJ mouse, tail vein injection; intravenous, 10 mg/kg daily, 7 days).
`N[C@@H](CCC(=O)N[C@@H](CS[Se]Cc1ccc(-c2cc(C(F)(F)F)nn2-c2ccc(S(N)(=O)=O)cc2)cc1)C(=O)NCC(=O)O)C(=O)O` — result for “decrease in tumour volume”: at most 70% (nude mouse, UACC-903 xenograft; i.p., 0.127 µmol alternate days, 4 weeks; reference: vehicle).
Under “ΔG‡ at 298.15 K”, `CC[C@H](C)[C@H](N)C(=O)N1CCC[C@H]1C(=O)NCC(=O)NCC(=O)O` is recorded as 22.7 ± 1.43 kcal/mol (diketopiperazine formation, Arrhenius plot, ESI-MS; 1-propanol; 70, 80, 90 °C, 0.5% acetic acid).
`CC(=O)[O-].O.O.[O-]c1ccc(Br)cc1C=NCCN1CCOCC1.[Zn+2]` — result for “inhibition zone diameter”: 30 mm (Aspergillus niger; 20 µL of 100 µM per disc).
`CCCCCCOC(=O)Cc1c(C)n(C(=O)c2ccc(Cl)cc2)c2ccc(OC)cc12` — result for “latency of nociceptive response”: 15.7 ± 1.31 s (hot plate test; BALB/c mice; 50 mg/kg, 120 min).
`COC(=O)N[C@H]1CC[C@@H](Nc2cc(NCc3ccccc3F)n3ncc(C(C)C)c3n2)CC1` — result for “tumour [18F]FLT uptake decrease”: 1.4 fold (PET; mice with HCT-116 xenograft; 15 mg/kg twice daily, 48 h; reference: vehicle).
`CC[C@H](C)[C@@H]1NC(=O)[C@H](Cc2ccc(O)cc2)NC(=O)[C@@H](N)CSSC[C@@H](C(=O)N2CCC[C@H]2C(=O)N[C@@H](CCCCNC(=O)COCCOCCNC(=O)COCCOCCNC(=O)CC[C@H](NC(=O)CC[C@H](NC(=O)CCCCCCCCCCCCCCCCC(=O)O)C(=O)O)C(=O)O)C(=O)NCC(N)=O)NC(=O)[C@H](CC(N)=O)NC(=O)[C@H](CCC(N)=O)NC1=O` — result for “onset of significant weight loss”: 1 days (C57BL/6 mice, diet-induced obese; subcutaneous, 2 µmol/kg daily).
Under “hot plate latency”, `COc1c2c(cc3oc(C)cc(=O)c13)O[C@H](C(C)(C)O[C@@H]1O[C@H](CO)[C@@H](O)[C@H](O)[C@H]1O)C2` is recorded as 10.4 ± 1.39 s (analgesia; mouse; oral, 1 mg/kg, 2 h).
`CC(C)(O)c1ncc([S@](N)(=O)=NC(=O)Nc2c3c(cc4c2CCC4)CCC3)s1` has an inhibition of about 90% (IL-1β release; healthy humans, whole blood ex vivo; oral, 100 mg once daily, 24 h, steady state, maintained, crystalline tablets).
`C[C@H](NC(=O)COC(=O)[C@H](C)NC(=O)CO)C(=O)O` — result for “depolymerization rate constant”: 0.516 h⁻¹ (water; pH 6, 37 °C).
For `CC(C)c1cnc(-c2cc(Cl)ccc2F)cc1Nc1ccncc1C(=O)NC(CO)CO`, the inhibition was over 60% (SMAD2/3 phosphorylation, flow cytometry; human patients, peripheral monocytes; at least 250 mg).
For `Cc1ccc(S(=O)(=O)N(CCc2nnc(S)n2N)c2ccc(Cl)cc2)cc1`, the inhibition was 33.2% (granulation tissue formation; cotton pellet model; 200 mg/kg).
Under “cumulative food intake”, `CCCCCCCCCCCCCCCC(=O)N[C@@H](CCC(=O)NCCCC[C@H](NC(=O)[C@H](CC(=O)O)NC(=O)[C@H](CO)NC(=O)[C@@H](NC(=O)[C@H](Cc1ccccc1)NC(=O)[C@@H](NC(=O)CNC(=O)[C@H](CCC(N)=O)NC(=O)[C@H](CO)NC(=O)[C@@H](N)Cc1c[nH]cn1)[C@@H](C)O)[C@@H](C)O)C(=O)N[C@@H](CO)C(=O)N[C@@H](CCC(=O)O)C(=O)N[C@@H](Cc1ccc(O)cc1)C(=O)N[C@@H](CC(C)C)C(=O)N[C@@H](CC(=O)O)C(=O)N[C@@H](CO)C(=O)N[C@@H](CCC(=O)O)C(=O)N[C@@H](CCCNC(=N)N)C(=O)N[C@@H](C)C(=O)N[C@@H](CCCNC(=N)N)C(=O)N[C@@H](CC(=O)O)C(=O)N[C@@H](Cc1ccccc1)C(=O)N[C@H](C(=O)N[C@@H](C)C(=O)N[C@@H](Cc1c[nH]c2ccccc12)C(=O)N[C@@H](CC(C)C)C(=O)N[C@@H](CCC(=O)O)C(=O)N[C@@H](C)C(=O)NCC(=O)NCC(=O)O)C(C)C)C(=O)O` is recorded as 53 g (diet-induced obese mouse; subcutaneous, 10 nmol/kg daily, end of treatment).
`COc1cc(O)c(Cl)cc1/C=C/C(=O)c1ccc(C(F)(F)F)cc1`: protein level “increased” (immunofluorescence, measured: ZO-1; mouse LPS acute lung injury, lung; po, dose not given).
`Cc1cc(O)c(C=O)c2c1C(=O)Oc1c(CO)c(O)c3c(c1O2)C(O)OC3=O` (centres unmarked): malondialdehyde level “decreased” (streptozotocin-diabetic male albino rats, serum; dose not given, 9 weeks; reference: diabetic control).
With `CC(C)(O)c1ccc(N2Cc3c(ccnc3-c3ccc(F)cc3OCC(F)(F)F)C2=O)cc1` the glucosylceramide level was 55 ± 2% (Gaucher disease mouse model, brain; 10 mg/kg, single dose; reference: vehicle).
For `O=C([O-])CN1CCN(CC(=O)[O-])CCN(CC(=O)NC[C@H]2CC[C@H](C(=O)N[C@H](Cc3cnc4ccccc4c3)C(=O)NCCCC[C@H](NC(=O)N[C@@H](CCC(=O)O)C(=O)O)C(=O)O)CC2)CCN(CC(=O)[O-])CC1.[64Cu+2]`, the mean SUVmax was 7.93 ± 3.83 (PET/CT; patients suspected prostate cancer, lymph node lesions; 2 h post-injection).
For `COc1ccc2nc3ccc(OC)cc3c(SCCCN)c2c1`, Ki67-positive cells read “decreased” (EO771, C57BL/6 mouse allograft; dose not given, 2 weeks).
For `C[C@@H](O)[C@@H]1NC(=O)[C@H](CCCCN)NC(=O)[C@@H](Cc2ccc(NC(N)=O)cc2)NC(=O)[C@H](Cc2ccc(NC(=O)[C@@H]3CC(=O)NC(=O)N3)cc2)NC(=O)[C@H](NC(=O)[C@H](Cc2ccc(Cl)cc2)NC(=O)CN2CCN(CC(=O)O)CCN(CC(=O)O)CCN(CC(=O)O)CC2)CSSC[C@@H](C(=O)N[C@H](Cc2ccc(O)cc2)C(N)=O)NC1=O` [gallium-68 labelled], “highest lesion SUVmax” read at most 50 (dynamic PET/CT; neuroendocrine tumour patients; 20 to 30 min post-injection).
`COc1ccc(C2CC(c3ccc(C)cc3)=Nc3ccccc3S2)cc1` (centres unmarked) gave an ALT (SGPT) of 21.1 ± 2.71 IU/L (Wistar rat, STZ-induced diabetes, serum; 20 mg/kg, 28 days).
For `CNc1oc(-c2cccc3ccccc23)nc1C#N`, beta-cell mass read “no effect” (NOD mice, prediabetic; ip, 24 mg/kg daily, 2 weeks).
`C=CC1=C(C)c2cc3[n-]c(cc4nc(cc5[n-]c(cc1n2)c(C)c5C=C)C(C)=C4CCC(=O)O)c(CCC(=O)O)c3C.[Cl-].[Fe+3]` — result for “lowest inhibitory concentration”: over 1.5 µM (in vitro translation, inhibitor; Trypanosoma cruzi translation extract; added: capped polyadenylated Renilla mRNA).
For `COc1cc(CNC(=O)C[C@H](C)CCC=C(C)C)ccc1OCc1cn(-c2cccc(C(F)(F)F)c2)nn1`, the growth percent was 28.1% (OVCAR-8 ovarian cancer cells; SRB; 10 µM, 48 h).
For `COc1c2c(cc3oc(CO)cc(=O)c13)O[C@H](C(C)(C)O)C2`, “hot plate latency” read 13.2 ± 3.28 s (analgesia; mouse; oral, 4 mg/kg, 1 h).
`COc1cc2c(cc1OC)CC(=O)N(C[C@H]1CCCN(CCOc3ccc(F)cc3)C1)CC2` — result for firing rate: “decreased” (VTA dopamine neurons; CSDS-susceptible male mice; intraperitoneal, 10 mg/kg; reference: baseline).
`CSCC[C@H](N)C(=O)N1CCC[C@H]1C(=O)NCC(=O)NCC(=O)O` — result for “ΔG‡ at 298.15 K”: 23.2 ± 3.35 kcal/mol (diketopiperazine formation, Arrhenius plot, ESI-MS; 1-propanol; 70, 80, 90 °C, 0.5% acetic acid).
`Cc1nc(C)c(C=[N+]([O-])C(C)(C)C)nc1C` — result for “increase in protein level”: 7.73% (Western blot, measured: TFAM; MPTP mouse model, substantia nigra cytosol; 10 mg/kg).
`CCOP(=O)(CC(=O)Nc1ccc(S(=O)(=O)N(CC(N)=O)c2ccc(N(CC(N)=O)S(=O)(=O)c3ccc(OC)cc3)c3ccccc23)cc1)OCC` — result for central distance: “increased” (open field test; APP/PS1 mice; intragastric, 40 mg/kg, 60 days, lentivirus intracerebroventricular; reference: untreated APP/PS1).
`O=C(Nc1ccc(C(F)(F)F)cc1Cl)c1cc(Cl)ccc1O`: “tumour Ki67, AR-V7 and HSP70” “inhibited” (immunohistochemistry; mice relapsed VCaP xenograft; dose not given).
Under ceramide level, `CCCCCCCCCn1cc(C(N)(CO)CO)nn1` is recorded as “decreased” (APP/PS1 mouse, neurons; dose not given).
Under “reduction in plasma ApoB100”, `CC(C)(CCCC/C=C/CCCCCC(C)(C)C(=O)O)C(=O)O` is recorded as 20.9% (rhesus monkey, spontaneous hyperlipidemia; 20 mg/kg, 2 weeks; reference: baseline).
`CCCCCC(O)C=CC1OC2OC(C1CC=CCCCC(=O)O)C2(F)F` (centres unmarked) has an Emax of 69.3 ± 4.5% (platelet aggregation, agonist, light transmission aggregometry; human platelet-rich plasma).
`CCC1CC2C(C)=CC3C(=O)CCCC3C=CC(C)=CC2C(=O)O1` (centres unmarked) — result for “synaptophysin level increase”: 10.4% (western blot; PS19 mouse (MAPT P301S), hippocampus; oral, 30 mg/kg, 3 weeks; reference: vehicle).
Under “acetylated α-tubulin level”, `CC(CCC(=O)NCc1ccc(C(=O)NO)cc1)C1CCC2C3C(O)CC4CC(O)CCC4(C)C3CCC12C` (centres unmarked) is recorded as “increased” (immunoblot; PCK rats, kidney; dose not given; reference: untreated).
`CSCCNc1nc(SCCC(F)(F)F)nc2c1ncn2[C@@H]1O[C@H](COP(=O)(O)OP(=O)(O)C(Cl)(Cl)P(=O)(O)O)[C@@H](O)[C@H]1O`: “patients with high reactivity” 50% (ADP-induced platelet aggregation, LTA, >59% aggregation; human patients, platelet-rich plasma; dose not given, 2 h, added: ADP 20 µM).
With `COc1cc(CNC(=O)C[C@H](C)CCC=C(C)C)ccc1OCc1cn(-c2ccc(Cl)c(Cl)c2)nn1` the growth percent was 46.3% (OVCAR-8 ovarian cancer cells; SRB; 10 µM, 48 h).

For quick reference, copied from above:
Under “AUC(2-58 h) fold change”, `CCC[C@@H]1O[C@@H]2C[C@H]3[C@@H]4C[C@H](F)C5=CC(=O)CC[C@]5(C)[C@@]4(F)[C@@H](O)C[C@]3(C)[C@]2(C(=O)CO)O1` is recorded as 1.2 fold (measured: human FGF21 protein; CD-1 mouse, plasma; subcutaneous, 0.3 mg/kg mRNA, MC3 LNP with hFGF21 mRNA, steroid/mRNA 2:3; reference: LNP without steroid).
For `CC(=O)N[C@@H](CC(N)=O)C(=O)NCC(=O)N[C@@H](CCCNC(=N)N)C(=O)N[C@@H](C)C(N)=O`, “rate constant succinimide to α-Asp” read 0.66 h⁻¹ (1H NMR; sodium phosphate buffer 50 mM; pH 7.4, 46 °C).
For `CCNS(=O)(=O)c1ccc(COc2ccc3nc4ccc(=O)cc-4oc3c2)cc1`, lung colonisation read “decreased” (4T1 GFP/luc, BALB/cJ mouse, tail vein injection; intravenous, 10 mg/kg daily, 7 days).
